Published values from different studies.
Each numbered part is a random draw from the data of one study; scales do not carry over between parts.

Series 1 — method: universal PBM; molecule type: double-stranded DNA, one strand shown; matrix: in vitro; concentration: 600 nM; direction: higher = stronger binding; endpoint: E-score
Target: Sal-like protein 4, full length isoform A (SALL4, Homo sapiens, UniProt Q9UJQ4, residues 1-1053)
Sequence of UniProt Q9UJQ4 (whole entry, looked up): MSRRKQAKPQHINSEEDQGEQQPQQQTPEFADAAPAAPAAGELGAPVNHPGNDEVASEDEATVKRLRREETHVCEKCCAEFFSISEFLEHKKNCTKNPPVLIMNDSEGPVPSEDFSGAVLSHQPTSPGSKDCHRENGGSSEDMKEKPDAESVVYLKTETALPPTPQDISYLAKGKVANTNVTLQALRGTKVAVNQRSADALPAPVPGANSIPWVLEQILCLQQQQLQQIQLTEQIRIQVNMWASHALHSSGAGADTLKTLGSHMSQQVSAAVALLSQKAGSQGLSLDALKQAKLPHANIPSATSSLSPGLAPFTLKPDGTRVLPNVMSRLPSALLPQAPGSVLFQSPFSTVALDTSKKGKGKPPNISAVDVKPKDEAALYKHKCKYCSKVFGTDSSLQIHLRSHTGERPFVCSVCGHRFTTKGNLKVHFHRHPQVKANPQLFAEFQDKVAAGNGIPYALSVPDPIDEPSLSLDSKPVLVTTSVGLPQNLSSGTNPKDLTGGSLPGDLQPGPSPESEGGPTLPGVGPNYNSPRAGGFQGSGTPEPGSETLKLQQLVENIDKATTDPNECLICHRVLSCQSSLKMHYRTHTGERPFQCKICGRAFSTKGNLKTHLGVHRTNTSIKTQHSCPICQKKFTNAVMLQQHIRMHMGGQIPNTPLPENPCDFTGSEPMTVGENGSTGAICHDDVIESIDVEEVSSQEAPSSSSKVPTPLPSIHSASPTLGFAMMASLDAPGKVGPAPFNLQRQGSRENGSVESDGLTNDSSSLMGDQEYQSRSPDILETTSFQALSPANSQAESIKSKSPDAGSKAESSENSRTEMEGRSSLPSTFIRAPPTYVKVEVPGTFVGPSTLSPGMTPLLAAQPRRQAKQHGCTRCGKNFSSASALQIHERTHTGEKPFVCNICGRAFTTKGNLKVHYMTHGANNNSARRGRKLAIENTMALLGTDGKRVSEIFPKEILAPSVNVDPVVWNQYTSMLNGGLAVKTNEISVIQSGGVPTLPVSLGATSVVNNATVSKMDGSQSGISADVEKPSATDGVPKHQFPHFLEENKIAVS
Setting: 8-mer, flanks averaged, mean of replicates
AGGTCGAT: -0.0329
CATCTTGG: 0.0106
CCGCTGTA: 0.00368
TATTTGGA: 0.207
AATAAAAG: 0.274
GACAGTAC: 0.0574
GCTCCTCC: -0.239
CCTGGGCC: -0.33
AGGATGTA: 0.128
GCGACTAC: -0.127
AGCTTCTC: -0.0654
ATTCCAAA: 0.163
CTTGACTA: 0.0423
TATCTGCA: 0.179
GGACGTCA: -0.104
GAAGAACA: 0.0954
TCTATTCA: 0.259

Series 2 — method: RNA Bind-n-Seq; molecule type: RNA; matrix: in vitro; concentration: 365 nM; relative to: no-protein control; direction: higher = stronger binding; endpoint: RBNS enrichment (R)
Target: RNA binding protein fox-1 homolog 2, RRM domain, GST-SBP tag (RBFOX2, Homo sapiens, UniProt O43251-10, residues 100-194)
Setting: natural RNA segment, single round, ends assumed
All sequences stand within: GGGAGUUCUACAGUCCGACGAUC … UGGAAUUCUCGGGUGCCAA
Construct (chain): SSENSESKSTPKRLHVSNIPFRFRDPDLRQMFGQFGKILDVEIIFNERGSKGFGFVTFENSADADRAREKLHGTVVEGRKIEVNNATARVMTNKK
CCAUGGUACCUGCACACCUAAAACACUAGGCCACGCAUCUGAUCUGUAGUCACAUGACUAAGCCAAGAGGAAGGAGCAAGACUCAAGACAUGAUUGAUGGAUGUUAAAGU: 0.303
ACCAGUUAGAUUCUUGCUCCCAGAUUGACUGUUAGUUUUCAGGAAACAAGGCUAUCUUUGGUCAUAUUCUCUGCUCUGGAAUUUCUGGGCUAGUCUUUCCUGAAUUCUAA: 0.408
AAUCUCAAAAGUUAAGCUGAAUUUCACACCAGAUCCUACCCCUUUCCCUGAGCCACAUGUUUCACACAAGUGUAGAAAAUGCCAGGGAUCCACCACAAGAUGGAGAUGGU: 0.563
GUGAAUACCUAGGAGAGUGUCAGCAUGUUUCUGGAAAAUUGGCAGAGACCAAGCCCUGCUGCAGAUUCGUCAGGCCAGGUGAAAGGGCCAGGCAGUUGCAGCUGAUGAUG: 2.62
AUCCCCAGAGUUCCGUUAGUAAACUUACUUCAUAUGUCCCCUGUCUUCCUCCAUCUGAGAAGUGGCCCAUGUGCUUCAAGGCCCAGGAGGGAGAUCUGUCAGCUCAUUCU: 0.342
GCCUGCCCUGCUCCCUCUCUGGCUCCCAGAAGAUCACAUGCUACCUCUGUCUCAUUUACAAAUUGGGGUAUAUCCUAAGUCAUGUCAAACUGCCGAUUUCAGGACUGGGA: 0.464
GUUUUCUUGAGCAGAGGGAUGGAACAGAGGGUGAGAGAGGCAGUGGCCGUCUCCACCUCAGCUCCUGCUCCCUCUGCAUCAGAGCCCUUCCUUUCUUGGGGGAUGGGCCU: 0.429
UUCUGUGGGAACAGUCCUUCUCUGGCUGGCUAGCUAGGCACAGCUACGGCACUGGAAAGAGUAGAGCCCAGGUGAAGCUUAGGAAAUUGGGAGCUAACACCAAGCAACUG: 0.417
CUUUAACAAAGACUCAAGAUCAAAUUUCUUACCUAAAAGUUUAGGUUAACUGUUGACUCCUCAAGGGUUUUGAUCAAUAUCACCCAAACCUUUUCCACUUGACAUGCUAG: 0.482
CUGCUAGGCUGACGACUAAGCUGCUGGCCCUGCAGAGGGUCCAGUGUACACUCCACUCUGCUACAGCAGCAUGGUGAGGACCCACCACAGGAGCUGUGCUCCUCAGAGGG: 0.202
AGCCUCCCCAGGACCUAGGGCGCCUGCCCUCUGCUGGCUAGGACCGGGCCCAGCCCAGCCCUUCCUGAAGCCAGAAGCGUUGCUGAGUGUGUUCCCUGUAACUGCCCCAU: 0.382
GGACUGUGAUGUCAUAUUAUUCAGUUUUAUGCUUGUUCCUGAGCAGAACUCAUAAGAGUGACAUAGUCAGCUGCUGACGGCACCUCAGCCACGCCACUCUUACUCAGUUC: 1.02

Series 3 — method: competition protein-binding microarray; molecule type: double-stranded DNA, one strand shown; matrix: in vitro; concentration: 2 µM; with: Cbf1 competitor, 0.05 µM; direction: higher = stronger binding; endpoint: fluorescence intensity; all sequences stand within: … GTCTTGATTCGCTTGACGCTGCTG
Target: Phosphate system positive regulatory protein PHO4, full length, GST-tagged (PHO4, Saccharomyces cerevisiae, UniProt P07270, residues 1-312)
Setting: whole 60-bp probe, lowest competitor level
Target sequence (chain): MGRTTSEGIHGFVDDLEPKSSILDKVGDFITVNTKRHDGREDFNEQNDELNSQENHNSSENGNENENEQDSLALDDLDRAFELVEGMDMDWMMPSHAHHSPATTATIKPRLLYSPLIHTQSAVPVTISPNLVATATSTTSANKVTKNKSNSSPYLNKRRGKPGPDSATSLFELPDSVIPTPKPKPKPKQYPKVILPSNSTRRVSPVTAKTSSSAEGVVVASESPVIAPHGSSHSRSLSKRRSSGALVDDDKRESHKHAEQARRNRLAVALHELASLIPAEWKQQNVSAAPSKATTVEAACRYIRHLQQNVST
CTAACGAAGGTTTTTCACGTGGGATACAAGCCAAGT: 14400 a.u.
TAAACTTCGAATTCCTTCGTGCTTTACTAAGACAAA: 5820 a.u.
CGTTTTTTTTCCCGACACGTGTCGGAGAAGAGTTTG: 17500 a.u.
CGGGGTTAAGTTTTTCACGTGAGATGCTTGCAGCAG: 10700 a.u.
TCAAAGCCTTACTGGCACGCATCCTGATGGGGACGC: 8270 a.u.
AAATTACTAAGTTGTCACGGGACTTACCCCGTATGA: 6070 a.u.
CGGGGTTAAGTTTGACCGGTGGGTGGCTTGCAGCAG: 4630 a.u.
AAAGCGGTAATTTTTCACGTGTTATCAAATATCTAT: 15100 a.u.
GTATTTCCGGTATCGCACGTGGTGATGGATTTGATC: 19600 a.u.
AAGTTTCGGAATACACTCGTGCTTTCAACCTAAGAC: 11500 a.u.
TATAGCTCTTTAATGCACATGCAAATGCGGTGGCGC: 9080 a.u.
TGAAGAGTGTTGTCTCATGTGACAGTGAATGCCATT: 5430 a.u.
GATCCTCGCCTGGGTGGCGTGCTTTGTGGTGAATGC: 6810 a.u.
ACAACGTAAAACTTGCATGTGAGGCTTAGGTGATTT: 7500 a.u.
ATATAAAGTTGTCCTCACATGCGGCGTCCATTGTTC: 7520 a.u.
CAAGGGCGCCCCGGCCACGTGGAATAATACTGACTT: 18300 a.u.
CCGCAGTGCGTAGTTGACGTGGGTAGAAAGCTAGTG: 5320 a.u.
GTCTTGTCTCATTGGGCGGTGGGTGTCCCCACTTCA: 4850 a.u.
CTAACGAAGGTTTGTCACCTCACTTACAAGCCAAGT: 3120 a.u.

Series 4 — method: protein-binding microarray; molecule type: double-stranded DNA, one strand shown; matrix: in vitro; concentration: 940 nM top; setting: 60-bp whole probe; with: salmon DNA 0.4 mg/ml; relative to: random background probes; direction: higher = stronger binding; endpoint: fitted relative affinity; all sequences stand within: GCCTAGCAC … GTCTTGATTCGCTTGACGCTGCTG
Target: Interferon regulatory factor 5, full length, phosphomimetic (IRF5, Homo sapiens, UniProt Q13568-2, residues 1-514, S451D/S453D/S456D/S462D)
AGGGGACTGACTCTTCAGCACGTGCTA: 0.186 z-score
TTAGGTCTCCTACTGCCTTAGTGCTAG: 0.0523 z-score
GGAGTTTTCTCATTCGTCATGTGCTAG: 1.49 z-score
TTAGGACTGCGACTGGGTTAGTGCTAG: -0.355 z-score
TTAGATATCGGGTATCCATTAGTGCTA: 0.194 z-score
TCACCTAACATGCTTCGAACTGTGCTA: 0.384 z-score
GGGCCCATCATTCCGACCCTGTGCTAG: 0.00308 z-score
TTACGTTTCGGACTGGGTTAGTGCTAG: 3.72 z-score
TTAGGTATACTTCTCCTTTAGTGCTAG: 0.46 z-score
GACGGTATAGGGTTTCGGGACGTGCTA: 1.67 z-score
GACGAAATGAGTTTCGAGACGTGCTAG: 4.26 z-score
GACGGACAGGGTATCGGGACGTGCTAG: 0.304 z-score
TCATTTCCCAGAACTGGAACTGTGCTA: 0.194 z-score
CTAGGACTGGGTTTCGGTTAGTGCTAG: 7.44 z-score
TTAGGACTGGGTATCGGTGAGTGCTAG: 1.54 z-score
ACCAAAATCAAGTCTGGGCTAGTGCTA: -0.614 z-score
TCATATGCCGACTTTGGAACTGTGCTA: 0.0815 z-score
TTAGGTGTCCTTCTCCTTTAGTGCTAG: 0.0767 z-score
GACCGTTCCGGTTTCGGGACGTGCTAG: 5.56 z-score

Excerpt of the above (series 1):
GCTCCTCC: -0.239
CCTGGGCC: -0.33
AGGATGTA: 0.128
GCGACTAC: -0.127
AGCTTCTC: -0.0654
ATTCCAAA: 0.163
CTTGACTA: 0.0423
